Measurements gathered from unrelated publications.
Each line is one published result; not all experiments were run side by side. Values joined by “and” are separate records of one study, mostly repeats; a detail may differ. Numbers after ± are the reported error.
rep main protease: Replicase polyprotein 1ab, main protease (rep, Severe acute respiratory syndrome coronavirus 2, UniProt P0DTD1)
plsY3: Glycerol-3-phosphate acyltransferase 3 (plsY3, Bacillus anthracis, UniProt Q81Y92)
Sequence of UniProt Q81Y92 (whole entry, looked up): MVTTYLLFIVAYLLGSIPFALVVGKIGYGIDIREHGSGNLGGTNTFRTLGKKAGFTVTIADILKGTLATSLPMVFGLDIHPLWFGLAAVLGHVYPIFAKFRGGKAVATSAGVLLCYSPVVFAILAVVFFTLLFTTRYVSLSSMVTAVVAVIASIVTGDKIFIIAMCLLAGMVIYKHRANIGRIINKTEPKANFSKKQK
Spike glycoprotein: Spike glycoprotein (Severe acute respiratory syndrome coronavirus 2, UniProt P0DTC2)
Sequence of UniProt Q9BYF1 (whole entry, looked up): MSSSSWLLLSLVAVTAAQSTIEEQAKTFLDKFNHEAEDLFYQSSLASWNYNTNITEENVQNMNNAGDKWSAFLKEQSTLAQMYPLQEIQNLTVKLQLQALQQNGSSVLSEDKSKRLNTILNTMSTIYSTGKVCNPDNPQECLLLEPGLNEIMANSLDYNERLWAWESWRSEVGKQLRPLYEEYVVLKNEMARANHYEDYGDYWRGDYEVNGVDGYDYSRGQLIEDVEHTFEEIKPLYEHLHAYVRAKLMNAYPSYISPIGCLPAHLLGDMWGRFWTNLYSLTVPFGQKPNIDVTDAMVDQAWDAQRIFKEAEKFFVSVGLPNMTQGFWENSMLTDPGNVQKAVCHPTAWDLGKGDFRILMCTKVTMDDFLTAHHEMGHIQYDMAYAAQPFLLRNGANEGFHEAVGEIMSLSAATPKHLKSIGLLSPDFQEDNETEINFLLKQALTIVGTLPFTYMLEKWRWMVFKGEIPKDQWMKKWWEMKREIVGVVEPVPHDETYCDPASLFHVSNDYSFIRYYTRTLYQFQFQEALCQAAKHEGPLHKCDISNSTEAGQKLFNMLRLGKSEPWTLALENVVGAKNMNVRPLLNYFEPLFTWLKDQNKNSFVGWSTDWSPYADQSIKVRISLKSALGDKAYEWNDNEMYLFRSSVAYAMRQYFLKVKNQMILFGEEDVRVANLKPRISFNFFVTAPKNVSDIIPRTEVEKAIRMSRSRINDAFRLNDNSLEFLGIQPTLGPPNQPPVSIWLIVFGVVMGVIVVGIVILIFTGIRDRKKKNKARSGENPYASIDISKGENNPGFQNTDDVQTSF
Sequence of UniProt Q5XXP4 (whole entry, looked up): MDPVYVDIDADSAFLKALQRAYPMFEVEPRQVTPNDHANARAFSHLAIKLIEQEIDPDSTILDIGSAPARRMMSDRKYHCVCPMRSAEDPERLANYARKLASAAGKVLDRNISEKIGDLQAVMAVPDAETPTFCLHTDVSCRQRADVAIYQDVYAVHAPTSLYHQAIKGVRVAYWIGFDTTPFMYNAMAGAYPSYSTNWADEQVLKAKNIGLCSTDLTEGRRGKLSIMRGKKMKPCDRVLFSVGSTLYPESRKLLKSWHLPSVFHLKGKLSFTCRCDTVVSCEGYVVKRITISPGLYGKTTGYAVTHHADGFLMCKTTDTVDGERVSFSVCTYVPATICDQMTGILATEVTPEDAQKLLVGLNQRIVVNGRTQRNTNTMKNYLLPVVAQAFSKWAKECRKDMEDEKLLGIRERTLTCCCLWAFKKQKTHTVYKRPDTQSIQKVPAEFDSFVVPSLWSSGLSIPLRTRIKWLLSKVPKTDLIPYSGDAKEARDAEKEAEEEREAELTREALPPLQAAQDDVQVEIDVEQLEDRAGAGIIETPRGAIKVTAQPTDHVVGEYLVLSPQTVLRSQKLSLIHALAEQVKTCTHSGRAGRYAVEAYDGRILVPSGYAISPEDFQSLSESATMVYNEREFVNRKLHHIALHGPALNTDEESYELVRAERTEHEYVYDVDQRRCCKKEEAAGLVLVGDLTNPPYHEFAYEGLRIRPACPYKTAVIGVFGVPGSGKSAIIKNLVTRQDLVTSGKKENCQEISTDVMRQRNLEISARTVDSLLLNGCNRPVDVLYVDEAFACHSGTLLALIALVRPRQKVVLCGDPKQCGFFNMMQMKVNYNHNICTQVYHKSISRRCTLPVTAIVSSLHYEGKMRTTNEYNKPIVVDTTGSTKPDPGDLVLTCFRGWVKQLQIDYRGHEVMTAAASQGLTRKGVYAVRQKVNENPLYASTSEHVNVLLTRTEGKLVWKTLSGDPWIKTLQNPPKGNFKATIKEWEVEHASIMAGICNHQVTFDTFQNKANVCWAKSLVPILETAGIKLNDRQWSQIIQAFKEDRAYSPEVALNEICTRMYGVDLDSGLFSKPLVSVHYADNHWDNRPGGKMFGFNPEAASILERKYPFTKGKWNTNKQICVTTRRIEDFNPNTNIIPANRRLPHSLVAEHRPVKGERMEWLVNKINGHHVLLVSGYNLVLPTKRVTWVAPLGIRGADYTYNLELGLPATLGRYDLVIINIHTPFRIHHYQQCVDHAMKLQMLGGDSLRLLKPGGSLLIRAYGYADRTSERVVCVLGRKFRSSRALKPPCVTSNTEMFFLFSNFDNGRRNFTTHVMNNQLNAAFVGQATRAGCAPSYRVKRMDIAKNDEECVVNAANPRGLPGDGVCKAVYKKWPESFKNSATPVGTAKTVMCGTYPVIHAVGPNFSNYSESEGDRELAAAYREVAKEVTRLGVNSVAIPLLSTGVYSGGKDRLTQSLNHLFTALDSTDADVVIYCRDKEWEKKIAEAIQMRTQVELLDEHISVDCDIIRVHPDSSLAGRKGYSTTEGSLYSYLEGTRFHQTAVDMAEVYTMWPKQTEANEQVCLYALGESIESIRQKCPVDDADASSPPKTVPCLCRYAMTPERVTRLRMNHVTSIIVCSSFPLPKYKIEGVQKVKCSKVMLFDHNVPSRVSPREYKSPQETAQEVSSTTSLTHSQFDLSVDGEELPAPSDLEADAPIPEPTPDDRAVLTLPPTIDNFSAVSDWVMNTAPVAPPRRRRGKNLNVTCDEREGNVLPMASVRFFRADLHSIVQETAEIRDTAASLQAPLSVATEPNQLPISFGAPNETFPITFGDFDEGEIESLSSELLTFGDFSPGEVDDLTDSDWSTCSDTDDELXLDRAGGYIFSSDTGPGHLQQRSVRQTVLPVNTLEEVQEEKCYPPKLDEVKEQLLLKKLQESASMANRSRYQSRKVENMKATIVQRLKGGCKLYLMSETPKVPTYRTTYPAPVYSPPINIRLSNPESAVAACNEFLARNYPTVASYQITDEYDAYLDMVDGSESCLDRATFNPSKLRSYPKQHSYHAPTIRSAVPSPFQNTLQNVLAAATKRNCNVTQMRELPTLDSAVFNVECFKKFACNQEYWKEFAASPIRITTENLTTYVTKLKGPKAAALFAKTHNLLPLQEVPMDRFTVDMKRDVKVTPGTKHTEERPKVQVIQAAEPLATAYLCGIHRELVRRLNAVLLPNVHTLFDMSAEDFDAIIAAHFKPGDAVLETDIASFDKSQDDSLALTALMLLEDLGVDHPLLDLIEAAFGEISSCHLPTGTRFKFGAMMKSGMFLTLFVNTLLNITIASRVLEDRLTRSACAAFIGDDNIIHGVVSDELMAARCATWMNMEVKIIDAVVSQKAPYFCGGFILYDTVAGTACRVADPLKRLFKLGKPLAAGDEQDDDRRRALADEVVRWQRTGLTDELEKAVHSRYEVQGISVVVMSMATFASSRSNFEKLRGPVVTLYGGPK

The inhibition of `NC(=O)c1ccc(/C=C/C(=O)N2C[C@H]3CCC[C@@H](C2)N3C(=O)CCn2c(O)ccc2O)cc1` is reported as 14.8% (rep main protease; enzyme activity, inhibitor; 5 µM, mean of runs).
`C=CCc1cc(OC)c2c(c1)OCO2` gave an inhibition of -0.374% (rep main protease; reporter gene (mKate2), inhibitor; 20 µM).
For `CNC(=O)[C@@H](NC(=O)[C@H](CC(C)C)[C@H](O)C(=O)NO)C(C)(C)C`, the remaining activity was 92% and 91% and 93% (Daboia russelii venom proteases (SVMP); protease activity, inhibitor; KA population; 0.01 µM, added: azocasein substrate; reference: venom alone).
For `C#Cc1cccc(NC(=O)NC(=O)CCl)c1`, the inhibition was 101% (Polyprotein P1234, nsP2 protease domain (Chikungunya virus, UniProt Q5XXP4); protease activity, FRET; 20 µM).
With `CCCCCCCCCCCCCCCC(=O)CP(=O)(O)O` the inhibition was 67% (plsY3; inhibitor; 200 µM).
For `Cn1cnc(Cn2c(=O)[nH]/c(=N\c3cc4cn(C)nc4cc3Cl)n(Cc3cc(F)c(F)cc3F)c2=O)n1`, “patients with adverse event” read 0% (human, moderate renal impairment; oral, 375 mg, treatment-related dry mouth, Mild severity).
With `CC1=C(/C=C/C(C)=C/C=C/C(C)=C/C=C/C=C(C)/C=C/C=C(C)/C=C/C2=C(C)CCCC2(C)C)C(C)(C)CCC1` the Kd was 110 µM (Spike glycoprotein; binding, biolayer interferometry).
For `CC(C)C[C@H](NC(=O)[C@H](CC(C)C)NC(=O)[C@H](CCCCN)NC(=O)[C@H](CCCCN)NC(=O)[C@H](CCCCN)NC(=O)[C@H](CC(C)C)NC(=O)[C@H](CC(C)C)NC(=O)[C@H](CC(C)C)NC(=O)CNC(=O)[C@H](CC(C)C)NC(=O)[C@H](CCCCN)NC(=O)[C@H](CCCCN)NC(=O)[C@@H](N)CC(C)C)C(=O)O`, “lowest cytotoxic concentration” read 256 µg/mL (HEK-293T; cell death; 24 h, 10% cell death).
The AC50 of `Cc1cc(OCC(O)CN2CCN(c3cccc(Cl)c3)CC2)ccc1Cl` (stereo not drawn) is reported as 12.6 µM (SARS-CoV-2; cytopathic effect, cell-based CPE; USA_WA1/2020; round 1, 5-point dilution).
`COc1ccc2[nH]c(C(O)c3ccc(Cl)cc3)c(CCNC(C)=O)c2c1` (stereo not drawn) gave an inhibition of 20 to 30% (Angiotensin-converting enzyme 2, with SARS-CoV-2 spike RBD (ACE2, Homo sapiens, UniProt Q9BYF1); RBD binding, TR-FRET; 100 µM, added: RBD-d2 5 nM).
For `CCCCCCCC/C=C\CCCCCCCC(=O)C(F)(F)P(=O)(O)O`, the inhibition was 68% (plsY3; inhibitor; 200 µM).
`CN[C@@]1(c2ccccc2Cl)CCCCC1=O` has an inhibition of 24% (muscarinic acetylcholine receptor; radioligand binding, antagonist, radioligand displacement; 30 µM).
`Cc1cc(C2CCCCC2)n(OCOP(=O)(O)O)c(=O)c1` has an inhibition of 0.543% (rep main protease; viral replication, mKate2 reporter; SARS-CoV-2; 20 µM).
`O=C(NC[C@@H]1Cc2ccccc2CN1c1nnnn1-c1ccccc1)c1cc[nH]c(=O)c1` has an inhibition of 11% (rep main protease; enzyme activity, inhibitor; 5 µM, run 1).
For `Oc1ccccc1-c1noc(-c2ccccc2O)n1`, the inhibition was -50.6 ± 14.9% (Spike glycoprotein, receptor-binding domain (Severe acute respiratory syndrome coronavirus 2, UniProt P0DTC2); spike RBD binding to ACE2, inhibitor, ELISA; 10 µM).
With `O=C1O[C@H]2[C@@H]3OC(=O)c4cc(O)c(O)c(O)c4-c4c(cc(O)c(O)c4O)C(=O)OC[C@H]2O[C@@H](OC(=O)c2cc(O)c(O)c(O)c2)[C@@H]3OC(=O)c2cc(O)c(O)c3c2[C@@H]2C1=CC(=O)[C@](O)(O3)C2(O)O` the Kd was 2.03 µM (Spike glycoprotein; binding, biolayer interferometry).
`CC[C@H](C)[C@H](NC(=O)OCc1ccccc1)C(=O)N[C@@H](CCC(=O)OC)C(=O)N[C@H](C(=O)N[C@@H](CC(=O)OC)C(=O)CF)[C@@H](C)O` has an inhibition of 0.194% (rep main protease; reporter gene (mKate2), inhibitor; 20 µM).
With `O=C(Nc1cnccc1Cl)N1CCN(Cc2ccc3c(c2)OC(F)(F)O3)CC1` the inhibition was 38% (strychnine-sensitive glycine receptor, rat; binding; 50 µM, added: [3H]strychnine).
The inhibition of `O=C(N[C@@H]1Cc2ccccc2[C@H]1NC(=O)c1cc(O)ccc1[N+](=O)[O-])c1ccc2[nH]nnc2n1` is reported as 6.3% (rep main protease; enzyme activity, inhibitor; 5 µM, run 2).
The inhibition of `Nc1ncnc2c([C@@H]3N[C@H](CO)[C@@H](O)[C@H]3O)c[nH]c12` is reported as 0% (Severe acute respiratory syndrome coronavirus; viral replication, inhibitor; Vero 76; 9.5 µM).
The inhibition of `Cn1cc(C(=O)N2Cc3ccccc3C[C@H]2CNC(=O)c2cccc3[nH]ncc23)nn1` is reported as 11.9% (rep main protease; enzyme activity, inhibitor; 5 µM, run 1).
For `CC[C@H](C)[C@H](NC(=O)[C@H](CC(C)C)NC(=O)[C@H](Cc1c[nH]c2ccccc12)NC(=O)[C@H](CCC(N)=O)NC(=O)[C@@H](NC(=O)[C@H](Cc1ccccc1)NC(=O)[C@H](C)NC(=O)[C@H](CCCCNC(=O)COCCOCCNC(=O)COCCOCCNC(=O)CC[C@H](NC(=O)CCCCCCCCCCCCCCCCCCC(=O)O)C(=O)O)NC(=O)[C@H](CCC(N)=O)NC(=O)[C@H](C)NC(=O)[C@@H](NC(=O)[C@H](CCCCN)NC(=O)[C@H](CC(=O)O)NC(=O)[C@H](CC(C)C)NC(=O)C(C)(C)NC(=O)[C@@H](NC(=O)[C@H](CO)NC(=O)[C@H](Cc1ccc(O)cc1)NC(=O)[C@H](CC(=O)O)NC(=O)[C@H](CO)NC(=O)[C@@H](NC(=O)[C@H](Cc1ccccc1)NC(=O)[C@@H](NC(=O)CNC(=O)[C@H](CCC(=O)O)NC(=O)C(C)(C)NC(=O)[C@@H](N)Cc1ccc(O)cc1)[C@@H](C)O)[C@@H](C)O)[C@@H](C)CC)[C@@H](C)CC)C(C)C)C(=O)N[C@@H](C)C(=O)NCC(=O)NCC(=O)N1CCC[C@H]1C(=O)N[C@@H](CO)C(=O)N[C@@H](CO)C(=O)NCC(=O)N[C@@H](C)C(=O)N1CCC[C@H]1C(=O)N1CCC[C@H]1C(=O)N1CCC[C@H]1C(=O)N[C@@H](CO)C(N)=O`, “subjects with catheter site bruise” read 14.3% (healthy subjects; all MAD doses).
For `CCc1cc(C(=O)N2CC[C@@H]([C@@H]3CCCN3C(=O)c3ccc4oc(N)nc4c3)C2)cc(=O)[nH]1`, the inhibition was 9.5% (rep main protease; enzyme activity, inhibitor; 5 µM, run 1).
The inhibition of `CCOC(=O)[C@@H](Cc1ccc(O)c(O)c1)OC(=O)/C=C/c1ccc(O)c(O)c1` is reported as 0.0679% (rep main protease; reporter gene (mKate2), inhibitor; 20 µM).

Excerpt of the above:
`C=CCc1cc(OC)c2c(c1)OCO2` gave an inhibition of -0.374% (rep main protease; reporter gene (mKate2), inhibitor; 20 µM).
For `C#Cc1cccc(NC(=O)NC(=O)CCl)c1`, the inhibition was 101% (Polyprotein P1234, nsP2 protease domain (Chikungunya virus, UniProt Q5XXP4); protease activity, FRET; 20 µM).
For `CCc1cc(C(=O)N2CC[C@@H]([C@@H]3CCCN3C(=O)c3ccc4oc(N)nc4c3)C2)cc(=O)[nH]1`, the inhibition was 9.5% (rep main protease; enzyme activity, inhibitor; 5 µM, run 1).
